Experimental data collected from several papers.
Parts stem from different laboratories: compare values within a part only.
Sequence of UniProt Q15569 (whole entry, looked up): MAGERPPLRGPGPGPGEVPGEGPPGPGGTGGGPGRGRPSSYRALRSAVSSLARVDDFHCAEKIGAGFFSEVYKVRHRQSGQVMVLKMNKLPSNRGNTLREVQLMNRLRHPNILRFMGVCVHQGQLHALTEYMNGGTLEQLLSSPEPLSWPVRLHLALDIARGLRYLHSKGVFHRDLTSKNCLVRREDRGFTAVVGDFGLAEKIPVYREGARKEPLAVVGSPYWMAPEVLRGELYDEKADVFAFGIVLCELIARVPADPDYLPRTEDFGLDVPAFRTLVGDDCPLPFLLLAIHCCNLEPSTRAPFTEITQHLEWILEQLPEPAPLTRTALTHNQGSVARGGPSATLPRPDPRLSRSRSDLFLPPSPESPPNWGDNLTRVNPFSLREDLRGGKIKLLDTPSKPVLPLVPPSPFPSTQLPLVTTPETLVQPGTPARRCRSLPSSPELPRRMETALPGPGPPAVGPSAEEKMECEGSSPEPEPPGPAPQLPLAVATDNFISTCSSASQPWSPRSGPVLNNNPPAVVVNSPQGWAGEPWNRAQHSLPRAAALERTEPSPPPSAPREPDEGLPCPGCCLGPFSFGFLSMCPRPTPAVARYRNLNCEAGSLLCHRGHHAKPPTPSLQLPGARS
Sequence of UniProt P42338 (whole entry, looked up): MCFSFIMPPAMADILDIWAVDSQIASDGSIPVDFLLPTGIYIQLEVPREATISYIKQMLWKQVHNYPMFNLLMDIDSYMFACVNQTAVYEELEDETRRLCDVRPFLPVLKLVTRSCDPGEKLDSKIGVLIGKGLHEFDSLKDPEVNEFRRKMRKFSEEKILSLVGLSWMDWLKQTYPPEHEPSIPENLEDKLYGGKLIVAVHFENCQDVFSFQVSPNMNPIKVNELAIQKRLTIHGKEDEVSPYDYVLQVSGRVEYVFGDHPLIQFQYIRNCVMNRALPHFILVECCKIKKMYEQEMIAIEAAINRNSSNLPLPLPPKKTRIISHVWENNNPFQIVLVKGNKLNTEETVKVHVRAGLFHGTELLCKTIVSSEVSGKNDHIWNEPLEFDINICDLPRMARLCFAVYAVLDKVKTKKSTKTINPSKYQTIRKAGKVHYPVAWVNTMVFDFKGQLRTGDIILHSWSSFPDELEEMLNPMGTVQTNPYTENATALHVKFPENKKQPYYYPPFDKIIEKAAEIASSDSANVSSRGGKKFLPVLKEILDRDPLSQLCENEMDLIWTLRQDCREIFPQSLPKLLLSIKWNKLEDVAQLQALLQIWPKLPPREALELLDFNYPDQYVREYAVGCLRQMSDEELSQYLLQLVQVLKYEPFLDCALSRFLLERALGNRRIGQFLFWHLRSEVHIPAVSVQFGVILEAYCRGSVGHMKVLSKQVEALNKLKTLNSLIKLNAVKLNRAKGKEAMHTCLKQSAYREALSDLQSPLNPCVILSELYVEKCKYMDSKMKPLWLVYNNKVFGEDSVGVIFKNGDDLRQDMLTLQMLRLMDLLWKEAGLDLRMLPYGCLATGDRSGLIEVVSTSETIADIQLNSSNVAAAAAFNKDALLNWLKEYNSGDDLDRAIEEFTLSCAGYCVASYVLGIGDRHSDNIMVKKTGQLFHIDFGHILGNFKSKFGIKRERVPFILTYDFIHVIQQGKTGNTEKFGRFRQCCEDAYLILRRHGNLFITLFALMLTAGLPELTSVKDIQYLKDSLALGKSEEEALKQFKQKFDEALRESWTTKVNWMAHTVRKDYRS
Sequence of UniProt P11362 (whole entry, looked up): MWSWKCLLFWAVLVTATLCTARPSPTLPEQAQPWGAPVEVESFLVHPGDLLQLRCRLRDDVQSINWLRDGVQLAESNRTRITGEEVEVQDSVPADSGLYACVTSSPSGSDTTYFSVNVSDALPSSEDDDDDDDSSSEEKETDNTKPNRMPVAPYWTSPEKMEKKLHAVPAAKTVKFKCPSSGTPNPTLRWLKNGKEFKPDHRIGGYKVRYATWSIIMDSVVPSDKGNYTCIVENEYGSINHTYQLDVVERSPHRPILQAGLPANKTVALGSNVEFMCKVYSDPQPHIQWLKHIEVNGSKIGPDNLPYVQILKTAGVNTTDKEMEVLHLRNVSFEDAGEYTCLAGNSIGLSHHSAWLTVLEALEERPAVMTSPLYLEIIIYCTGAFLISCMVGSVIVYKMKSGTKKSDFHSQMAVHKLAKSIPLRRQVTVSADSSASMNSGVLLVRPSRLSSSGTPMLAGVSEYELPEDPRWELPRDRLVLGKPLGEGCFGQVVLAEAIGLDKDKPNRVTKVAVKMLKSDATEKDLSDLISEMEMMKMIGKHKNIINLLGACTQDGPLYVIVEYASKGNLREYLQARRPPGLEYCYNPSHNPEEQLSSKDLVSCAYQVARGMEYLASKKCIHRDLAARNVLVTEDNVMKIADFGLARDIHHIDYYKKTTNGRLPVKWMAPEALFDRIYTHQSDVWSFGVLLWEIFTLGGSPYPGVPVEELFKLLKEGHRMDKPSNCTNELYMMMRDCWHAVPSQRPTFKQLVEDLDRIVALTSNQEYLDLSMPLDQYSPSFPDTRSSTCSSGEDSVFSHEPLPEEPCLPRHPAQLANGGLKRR
Sequence of UniProt Q15831 (whole entry, looked up): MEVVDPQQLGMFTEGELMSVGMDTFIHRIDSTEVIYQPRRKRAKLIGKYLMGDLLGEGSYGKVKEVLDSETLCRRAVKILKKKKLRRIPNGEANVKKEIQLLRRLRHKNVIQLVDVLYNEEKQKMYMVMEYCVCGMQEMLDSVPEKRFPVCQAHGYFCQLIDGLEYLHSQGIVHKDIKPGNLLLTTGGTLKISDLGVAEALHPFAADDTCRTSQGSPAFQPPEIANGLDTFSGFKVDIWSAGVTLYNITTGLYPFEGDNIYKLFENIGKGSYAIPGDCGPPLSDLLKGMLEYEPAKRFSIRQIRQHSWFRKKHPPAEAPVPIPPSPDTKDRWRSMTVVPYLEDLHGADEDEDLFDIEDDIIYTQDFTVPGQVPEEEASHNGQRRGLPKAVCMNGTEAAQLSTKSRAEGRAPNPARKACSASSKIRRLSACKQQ
Sequence of UniProt P11802 (whole entry, looked up): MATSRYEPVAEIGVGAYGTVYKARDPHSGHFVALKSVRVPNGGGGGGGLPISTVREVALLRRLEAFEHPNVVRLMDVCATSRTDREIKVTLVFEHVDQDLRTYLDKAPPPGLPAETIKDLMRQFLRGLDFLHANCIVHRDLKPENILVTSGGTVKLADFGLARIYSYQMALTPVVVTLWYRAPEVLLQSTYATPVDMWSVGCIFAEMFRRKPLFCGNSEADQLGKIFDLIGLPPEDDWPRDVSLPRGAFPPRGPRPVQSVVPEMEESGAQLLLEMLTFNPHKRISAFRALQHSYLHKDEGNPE

Set 1
Target: Beta-1 adrenergic receptor (ADRB1, Homo sapiens, UniProt P08588)
Sequence of UniProt P08588 (whole entry, looked up): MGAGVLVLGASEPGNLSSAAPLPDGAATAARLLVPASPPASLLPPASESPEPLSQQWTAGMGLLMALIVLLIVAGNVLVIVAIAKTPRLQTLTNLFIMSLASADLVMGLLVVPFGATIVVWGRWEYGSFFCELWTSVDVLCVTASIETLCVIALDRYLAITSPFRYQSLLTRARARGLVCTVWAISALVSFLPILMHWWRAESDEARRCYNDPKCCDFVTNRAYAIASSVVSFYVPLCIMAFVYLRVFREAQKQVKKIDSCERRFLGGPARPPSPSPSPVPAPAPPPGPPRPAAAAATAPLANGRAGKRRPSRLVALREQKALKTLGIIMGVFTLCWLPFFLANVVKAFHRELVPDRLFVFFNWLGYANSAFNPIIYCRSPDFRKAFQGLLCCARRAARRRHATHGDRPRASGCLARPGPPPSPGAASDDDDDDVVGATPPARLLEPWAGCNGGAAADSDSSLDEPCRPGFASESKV
Action: antagonist
| SMILES | IC50 [µM] |
| --- | --- |
| N#Cc1cc(NC(=O)Nc2nnc(-c3ccncc3)s2)ccc1-c1cn[nH]c1 | ≥ 100 |
| COc1ccccc1N1CCN(C(=O)C2CC(=O)N(CCN3CCOCC3)C2)CC1 (stereo not drawn) | ≥ 100 |
| CN(C)c1cc(=O)c2ccnc(Nc3cccnc3)c2o1 | ≥ 100 |
| CC(C)c1ccc(Nc2n[nH]c(C(O)C3CC3)n2)cc1 (stereo not drawn) | ≥ 100 |
| Oc1ccc(-c2cc(-c3cccc(N4CCOCC4)c3)cn3cncc23)cn1 | ≥ 100 |
| Cc1noc2c(-c3cccnc3N3CC(O)C3)cc(-c3ccccc3)nc12 | ≥ 100 |
| Cc1noc2c(-c3cnn(C)c3)cc(-c3cccc(C(F)(F)F)c3)nc12 | ≥ 100 |
| Cc1noc2c(NC3CCC(O)CC3)cc(-c3ccc(F)cc3)nc12 (stereo not drawn) | ≥ 100 |
| Cc1noc2c(-c3cn[nH]c3)cc(-c3cccc(C(F)(F)F)c3)nc12 | 39.8 |
| Cc1noc(C)c1-c1cc2cc(CO)oc2c(NC2CCOCC2)n1 | ≥ 100 |
| CN(Cc1cccc(OCC(O)CN2CCOCC2)c1)Cc1ccc2nonc2c1 (stereo not drawn) | ≥ 100 |
| CCCc1cc(=O)n2nc(N(CC)Cc3cnn(C)c3)sc2n1 | ≥ 100 |
| O=C1CCN(Cc2ccccc2OCC(O)CN2CCCCC2)CCN1 (stereo not drawn) | ≥ 100 |
| CC(C)(C)CC(O)CNc1nc(C(F)(F)F)ns1 (stereo not drawn) | ≥ 100 |
| CCN(Cc1cccc([S+](=O)([O-])O)c1)c1ccc(C(=C2C=CC(=[N+](CC)Cc3cccc([S+](=O)([O-])O)c3)C=C2)c2ccc(O)cc2[S+](=O)([O-])O)cc1 | ≥ 100 |
| CC(C)c1ccccc1Nc1nnc(-c2cc(-c3cccnc3)nc3ccccc23)s1 | ≥ 100 |

Set 2
Structure (SMILES): CS(=O)(=O)N1CCCC(NC(=O)[C@H](CCC2CCCCC2)NC(=O)c2ccc(CNC(=O)c3cnc4ccccn34)cc2)C1 (stereo partly drawn)
Observed: cell-free assay
Method: competition with immobilised ligand
Concentration: 0.1 µM
| target | remaining binding [%] |
| --- | --- |
| FLT3 (Homo sapiens, UniProt P36888) | 82 |
| MAP3K4 (Homo sapiens, UniProt Q9Y6R4) | 91 |
| CAMK1 (Homo sapiens, UniProt Q14012) | 100 |
| STK39 (Homo sapiens, UniProt Q9UEW8) | 88 |
| RIOK3 (Homo sapiens, UniProt O14730) | 97 |
| PIK3CB (Homo sapiens, UniProt P42338) | 96 |
| TESK1 (Homo sapiens, UniProt Q15569) | 93 |
| STK11 (Homo sapiens, UniProt Q15831) | 51 |
| Cyclin-dependent kinase 4, with cyclin D3 (CDK4, Homo sapiens, UniProt P11802) | 100 |
| FGFR1 (Homo sapiens, UniProt P11362) | 100 |
| FLT3 (Homo sapiens, UniProt P36888, D835V/ITD) | 86 |
| EGFR (Homo sapiens, UniProt P00533, G719S) | 100 |

Set 3
Structure (SMILES): COc1cc(C(=O)N2CCC(N3CCN(C)CC3)CC2)ccc1Nc1ncc2c(n1)N(C)c1ccccc1C(=O)N2C
Method: KINOMEscan
Concentration: 10 µM
Reference: DMSO control
Reading: lower = stronger binding
| target | binding |
| --- | --- |
| PFTK1 | 81% |
| YANK1 | 100% |
| FGFR4 | 28% |
| HIPK1 | 100% |
| CDKL3 | 83% |
| LTK | 32% |
| CDC2L5 | 100% |
| TNIK | 100% |
| DRAK1 | 100% |
| MST1R | 98% |
| CASK | 85% |
| INSRR | 97% |

Set 4
Target: Receptor tyrosine-protein kinase erbB-4 (ERBB4, Homo sapiens, UniProt Q15303)
Sequence of UniProt Q15303 (whole entry, looked up): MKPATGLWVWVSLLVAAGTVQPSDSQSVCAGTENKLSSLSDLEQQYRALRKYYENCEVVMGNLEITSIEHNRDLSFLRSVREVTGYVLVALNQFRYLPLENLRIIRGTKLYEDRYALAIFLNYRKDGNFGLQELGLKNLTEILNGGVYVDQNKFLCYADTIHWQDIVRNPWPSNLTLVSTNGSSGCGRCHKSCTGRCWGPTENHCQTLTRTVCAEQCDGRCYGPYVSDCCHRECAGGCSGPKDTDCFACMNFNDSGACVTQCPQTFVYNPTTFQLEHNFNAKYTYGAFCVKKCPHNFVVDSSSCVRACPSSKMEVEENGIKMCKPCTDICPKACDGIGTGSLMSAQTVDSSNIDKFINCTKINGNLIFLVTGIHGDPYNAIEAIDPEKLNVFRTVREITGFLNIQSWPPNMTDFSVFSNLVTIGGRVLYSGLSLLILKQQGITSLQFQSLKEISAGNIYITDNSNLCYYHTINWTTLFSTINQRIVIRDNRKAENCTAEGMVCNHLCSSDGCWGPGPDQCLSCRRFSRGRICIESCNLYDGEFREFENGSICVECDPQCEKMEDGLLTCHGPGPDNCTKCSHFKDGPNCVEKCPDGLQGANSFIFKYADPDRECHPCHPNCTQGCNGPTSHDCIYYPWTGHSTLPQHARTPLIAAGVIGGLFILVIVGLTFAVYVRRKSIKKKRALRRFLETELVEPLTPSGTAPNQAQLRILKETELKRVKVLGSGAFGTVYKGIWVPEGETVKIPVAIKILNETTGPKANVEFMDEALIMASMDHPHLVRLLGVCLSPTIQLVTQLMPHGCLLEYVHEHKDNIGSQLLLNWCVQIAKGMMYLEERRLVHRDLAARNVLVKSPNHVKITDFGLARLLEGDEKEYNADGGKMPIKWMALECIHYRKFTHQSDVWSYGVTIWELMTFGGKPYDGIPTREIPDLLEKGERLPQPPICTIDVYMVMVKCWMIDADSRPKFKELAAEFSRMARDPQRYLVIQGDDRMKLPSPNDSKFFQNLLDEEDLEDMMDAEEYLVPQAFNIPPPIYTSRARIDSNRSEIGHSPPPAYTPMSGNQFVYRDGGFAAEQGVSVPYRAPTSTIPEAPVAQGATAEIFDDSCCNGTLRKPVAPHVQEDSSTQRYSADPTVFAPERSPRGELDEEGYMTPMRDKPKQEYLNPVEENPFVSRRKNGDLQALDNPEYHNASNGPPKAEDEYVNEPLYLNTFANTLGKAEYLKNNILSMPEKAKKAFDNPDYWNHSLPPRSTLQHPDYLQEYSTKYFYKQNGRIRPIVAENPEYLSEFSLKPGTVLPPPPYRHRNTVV
Observed: enzyme activity
Action: inhibitor
Concentration: 0.5 µM
Reference: control
| SMILES | remaining activity [%] |
| --- | --- |
| CN(C)CCCn1cc(C2=C(c3c[nH]c4ccccc34)C(=O)NC2=O)c2ccccc21 | 87.7 |
| COc1ccc(-c2cnc3c(-c4ccsc4)cnn3c2)cc1 | 94.2 |
| COc1cc2ncnc(Nc3ccc(OCc4ccccc4)cc3)c2cc1OC | 9.19 |
| COc1cc2ncc(-c3ccccc3)nc2cc1OC | 65.9 |
| Cn1cc(/C=C2\C(=O)Nc3ccc(S(N)(=O)=O)cc32)c2ccccc21 | 81.3 |
| CCOc1cc2ncnc(Nc3cccc(Br)c3)c2cc1OCC | 34.3 |
| COc1ccc(Cl)cc1NC(=O)Nc1cc(C)nc2ccccc12 | 97.8 |
| CC(=O)O/N=C1/C(c2c(O)[nH]c3cc(Br)ccc23)=Nc2ccccc21 | 101 |
| Nc1[nH]nc2nnc(-c3c(-c4ccccc4)nn4ccccc34)cc12 | 91.4 |
| Cn1cnc2cc3c(Nc4cccc(Br)c4)ncnc3cc21 | 75.5 |
| CC(C)c1nn(-c2c(Cl)cccc2Cl)c2nc(Cc3ccc(OCCO)cc3)[nH]c(=O)c12 | 101 |
| C[S+]([O-])c1ccc(-c2nc(-c3ccncc3)c(-c3ccc(F)cc3)[nH]2)cc1 (stereo not drawn) | 66.8 |
| Cc1ccc(NC(=O)c2ccc(CN3CCN(C)CC3)cc2)cc1Nc1nccc(-c2cccnc2)n1 | 92.2 |
| CCC(=O)Nc1ccc2ncnc(Nc3cccc(Br)c3)c2c1 | 82.3 |

Repeated from above (set 4):
| SMILES | remaining activity [%] |
| --- | --- |
| Cn1cnc2cc3c(Nc4cccc(Br)c4)ncnc3cc21 | 75.5 |
| CC(C)c1nn(-c2c(Cl)cccc2Cl)c2nc(Cc3ccc(OCCO)cc3)[nH]c(=O)c12 | 101 |
| C[S+]([O-])c1ccc(-c2nc(-c3ccncc3)c(-c3ccc(F)cc3)[nH]2)cc1 (stereo not drawn) | 66.8 |
| Cc1ccc(NC(=O)c2ccc(CN3CCN(C)CC3)cc2)cc1Nc1nccc(-c2cccnc2)n1 | 92.2 |
